Assay results pooled from the literature.
A part holds a random share of what one study measured.
UniProt P49711, sequence (whole entry, looked up): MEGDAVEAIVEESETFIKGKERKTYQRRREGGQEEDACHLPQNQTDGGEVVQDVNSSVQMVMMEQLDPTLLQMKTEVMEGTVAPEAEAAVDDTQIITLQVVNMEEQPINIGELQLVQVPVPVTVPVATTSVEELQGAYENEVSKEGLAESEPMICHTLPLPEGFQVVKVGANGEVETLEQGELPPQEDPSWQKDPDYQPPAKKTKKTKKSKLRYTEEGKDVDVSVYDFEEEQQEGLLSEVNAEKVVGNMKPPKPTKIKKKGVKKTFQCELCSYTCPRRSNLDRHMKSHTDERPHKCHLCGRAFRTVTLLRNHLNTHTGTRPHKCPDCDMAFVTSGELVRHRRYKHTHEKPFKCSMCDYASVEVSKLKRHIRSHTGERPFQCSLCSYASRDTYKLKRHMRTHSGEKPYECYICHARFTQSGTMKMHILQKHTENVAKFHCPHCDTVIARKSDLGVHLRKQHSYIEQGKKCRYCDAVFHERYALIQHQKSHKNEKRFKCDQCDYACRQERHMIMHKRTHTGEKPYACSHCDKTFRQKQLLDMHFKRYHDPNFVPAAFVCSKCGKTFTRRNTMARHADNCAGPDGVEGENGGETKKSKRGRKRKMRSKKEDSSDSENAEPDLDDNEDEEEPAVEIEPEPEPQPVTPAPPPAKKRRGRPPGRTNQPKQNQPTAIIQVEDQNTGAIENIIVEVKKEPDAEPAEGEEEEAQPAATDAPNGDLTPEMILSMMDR
UniProt P14921, sequence (whole entry, looked up): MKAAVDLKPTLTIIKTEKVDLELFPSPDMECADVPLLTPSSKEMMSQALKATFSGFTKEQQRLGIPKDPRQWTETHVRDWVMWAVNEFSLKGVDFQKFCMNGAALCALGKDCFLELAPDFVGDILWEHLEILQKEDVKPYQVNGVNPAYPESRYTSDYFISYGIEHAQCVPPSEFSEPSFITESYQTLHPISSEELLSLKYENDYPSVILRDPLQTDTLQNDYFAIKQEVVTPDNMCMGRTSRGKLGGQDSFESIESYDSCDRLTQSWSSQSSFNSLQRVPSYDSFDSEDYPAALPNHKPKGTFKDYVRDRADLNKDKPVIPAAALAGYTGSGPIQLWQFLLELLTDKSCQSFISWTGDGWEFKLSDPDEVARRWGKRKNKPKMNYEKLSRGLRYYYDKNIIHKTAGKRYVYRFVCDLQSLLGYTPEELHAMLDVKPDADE
UniProt P48431, sequence (19-118, looked up): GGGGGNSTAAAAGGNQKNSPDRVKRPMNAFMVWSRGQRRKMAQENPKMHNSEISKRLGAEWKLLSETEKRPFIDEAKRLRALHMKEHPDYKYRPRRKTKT

Set 1 — method: competition protein-binding microarray; form: double-stranded DNA, one strand shown; medium: in vitro; tested at: 2 µM; with: Pho4 competitor, 0.05 µM; direction: higher = stronger binding
Target: Centromere-binding protein 1, full length, His-tagged (CBF1, Saccharomyces cerevisiae, UniProt P17106, residues 1-351)
UniProt P17106, sequence (whole entry, looked up): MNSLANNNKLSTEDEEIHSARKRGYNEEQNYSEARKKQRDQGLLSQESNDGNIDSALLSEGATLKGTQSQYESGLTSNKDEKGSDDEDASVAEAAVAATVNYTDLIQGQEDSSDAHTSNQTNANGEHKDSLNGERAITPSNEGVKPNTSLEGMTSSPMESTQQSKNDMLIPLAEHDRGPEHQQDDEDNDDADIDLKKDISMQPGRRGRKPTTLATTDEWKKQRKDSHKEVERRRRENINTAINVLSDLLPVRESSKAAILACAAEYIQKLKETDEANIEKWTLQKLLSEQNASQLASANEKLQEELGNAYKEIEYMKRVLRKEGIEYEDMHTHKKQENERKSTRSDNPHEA
Setting: whole 60-bp probe, lowest competitor level
Oligonucleotide	fluorescence intensity
AAATTACTAAGTTGTTGGGTGGGTGACGCCGTATGAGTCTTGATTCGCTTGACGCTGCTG	74.8 a.u.
CAGGCATAGCCCCGTCACGTTCTACGATAAGAACTTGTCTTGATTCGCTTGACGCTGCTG	321 a.u.
ATGTGTAAATCCGATACCAATAAAGTCAATGATAGGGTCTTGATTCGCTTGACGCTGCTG	80 a.u.
CTTTCCCGATCTTGAGTTGTGGGTGTAGCACATTTGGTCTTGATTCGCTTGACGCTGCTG	86.4 a.u.
CCGCGGAATAGCGTTCCCGTGGGTAGAAAAGCAGCAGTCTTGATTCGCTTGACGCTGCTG	99.6 a.u.
CTTTCCCGATCTTGTCACAGTACTTTAGCACATTTGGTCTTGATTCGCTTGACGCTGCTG	85.6 a.u.
GCTCATAAAACCATGCGCGTGTTTTTCTTCCACGGCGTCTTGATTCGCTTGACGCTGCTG	110 a.u.
ACCTCAAGTGATGGGTACGTGGGTAGTCAGGCTTCCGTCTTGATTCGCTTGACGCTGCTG	61.6 a.u.

Set 2 — read-out: enzyme activity; mode: inhibitor; tested at: 20 µM; setting: hit confirmation
Target: Replicase polyprotein 1ab, main protease (rep, Severe acute respiratory syndrome coronavirus 2, UniProt P0DTD1)
SMILES	inhibition [%]
O=c1c2ccccc2sn1-c1ccccc1	109
Nc1nc2nc[nH]c2c(=S)[nH]1	34.6
NC[C@H](O)c1ccc(O)c(O)c1	75.2

Set 3 — read-out: enzyme activity; mode: inhibitor; tested at: 20 µM
Target: Replicase polyprotein 1ab, polymerase (rep, Severe acute respiratory syndrome coronavirus 2, UniProt P0DTD1)
Structure (SMILES)	inhibition [%]
C[C@@H](O)[C@H]1C(=O)N2C(C(=O)O)=C(S[C@@H]3CN[C@H](CNS(N)(=O)=O)C3)[C@H](C)[C@H]12	1.35
CC[C@]1(O)C[C@H]2CN(CCc3c([nH]c4ccccc34)[C@@](C(=O)OC)(c3cc4c(cc3OC)N(C=O)[C@H]3[C@@](O)(C(=O)OC)[C@H](OC(C)=O)[C@]5(CC)C=CCN6CC[C@]43[C@@H]65)C2)C1	2.04
O=C(CCCCCCNC(=O)c1cnc(N(c2ccccc2)c2ccccc2)nc1)NO	1.82
O=c1[nH]c(=O)n([C@H]2C[C@H](O)[C@@H](CO)O2)cc1F	-1.63
NC(=O)N1c2ccccc2CC(O)c2ccccc21 (stereo not drawn)	-5.01
O=C(O)c1cc(N2N=C(C(F)(F)F)/C(=C/c3ccc(-c4ccccc4)o3)C2=O)ccc1Cl	32.5
CC(C)(C)c1ccc(C(=O)Nc2cn3cc(-n4ccnc4)ccc3n2)cc1	-6.81
CC1Nc2ccc(Cl)cc2S(=O)(=O)N1 (stereo not drawn)	3.75
CC(C)(C)C(=O)CN1C(=O)[C@H](NC(=O)Nc2cccc(C(=O)O)c2)CN(C2CCCCC2)c2ccccc21	0.16
N[C@@H](COP(=O)(O)O)C(=O)O	1.32
OC(Cn1cncn1)(Cn1cncn1)c1ccc(F)cc1F	-3.68
COC(=O)C1=C(C)NC(C)=C(C(=O)NCCCN2CCC(c3ccccc3)(c3ccccc3)CC2)C1c1ccc([N+](=O)[O-])cc1 (stereo not drawn)	6.42
CCN1CCN(c2ccc(Nc3cc(N(C)C(=O)Nc4c(Cl)c(OC)cc(OC)c4Cl)ncn3)cc2)CC1	2.26
Oc1ccc(/C=C/c2cc(O)cc(O)c2)cc1	-0.05
Fc1ccc(CNc2ncnc3ccc(F)cc23)cc1	3.53
N[C@@H](CSCC(=O)O)C(=O)O	-2.68
CC(Cc1ccc(O)cc1)NCC(O)c1cc(O)cc(O)c1 (stereo not drawn)	4.2
O=C1C=CC[C@@H]2[C@H]3CCCN4CCC[C@@H](CN12)[C@@H]34	-2.4
C[C@H](NC(=O)/C(C#N)=C/c1cccc(Br)n1)c1ccccc1	1.34
Oc1noc2c1CCNC2	-1.14
OCC(O)CN1CCN(c2ccccc2)CC1 (stereo not drawn)	5.12
FCc1ccc(OCCOc2ccc(Cl)cc2Cl)c(Cl)n1	-1.27
O=C1Cc2c([nH]c3ccc(Br)cc23)-c2ccccc2N1	2.53
O=C1c2c(O)cc(O)cc2O[C@H](c2cc(O)c(O)c(O)c2)[C@H]1O	13
CC(C)CN(C[C@@H](O)[C@H](Cc1ccccc1)N(C(=O)CNCc1cccc(F)c1)[C@H](C(N)=O)C(C)(C)C)S(=O)(=O)c1cccc(N)c1	-3.35

Set 4 — method: universal PBM; form: double-stranded DNA, one strand shown; medium: in vitro; tested at: 600 nM; direction: higher = stronger binding
Target: Sal-like protein 4, full length isoform A (SALL4, Homo sapiens, UniProt Q9UJQ4, residues 1-1053)
UniProt Q9UJQ4, sequence (whole entry, looked up): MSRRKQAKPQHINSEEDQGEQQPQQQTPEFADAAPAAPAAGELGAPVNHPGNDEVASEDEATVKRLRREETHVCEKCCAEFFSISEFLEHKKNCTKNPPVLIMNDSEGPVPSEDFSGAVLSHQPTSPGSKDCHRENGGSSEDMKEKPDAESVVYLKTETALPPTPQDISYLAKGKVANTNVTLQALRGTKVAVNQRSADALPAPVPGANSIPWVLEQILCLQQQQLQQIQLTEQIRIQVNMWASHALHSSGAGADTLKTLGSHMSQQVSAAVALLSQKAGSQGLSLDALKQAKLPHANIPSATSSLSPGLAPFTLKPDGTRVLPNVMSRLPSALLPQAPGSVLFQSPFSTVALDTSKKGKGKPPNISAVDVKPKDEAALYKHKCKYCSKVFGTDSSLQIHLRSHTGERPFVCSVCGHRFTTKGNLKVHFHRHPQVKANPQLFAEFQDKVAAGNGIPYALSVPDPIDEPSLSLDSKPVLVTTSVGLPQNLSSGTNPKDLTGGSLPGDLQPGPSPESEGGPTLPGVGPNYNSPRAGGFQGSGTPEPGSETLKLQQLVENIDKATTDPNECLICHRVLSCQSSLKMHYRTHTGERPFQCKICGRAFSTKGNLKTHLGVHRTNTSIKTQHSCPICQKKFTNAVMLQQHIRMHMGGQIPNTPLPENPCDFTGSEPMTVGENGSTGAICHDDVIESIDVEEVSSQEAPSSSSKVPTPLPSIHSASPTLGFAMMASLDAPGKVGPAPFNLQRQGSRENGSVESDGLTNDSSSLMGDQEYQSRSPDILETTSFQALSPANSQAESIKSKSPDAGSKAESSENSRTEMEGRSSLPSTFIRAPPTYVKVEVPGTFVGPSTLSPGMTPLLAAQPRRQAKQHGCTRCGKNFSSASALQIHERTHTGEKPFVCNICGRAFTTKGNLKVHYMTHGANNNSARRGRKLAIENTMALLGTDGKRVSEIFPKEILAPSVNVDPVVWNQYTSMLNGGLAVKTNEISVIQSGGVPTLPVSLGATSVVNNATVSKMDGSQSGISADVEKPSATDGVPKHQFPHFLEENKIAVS
Setting: 8-mer, flanks averaged, mean of replicates
Oligonucleotide	E-score
ATTCTGCC	-0.0403
AGCCAAAT	0.0268
AAATAAGT	0.286
ACTCCATC	0.00419
CGAAACGC	-0.245
CACGTCTA	0.00519
AATAACAG	0.309
AGTGACAT	0.111

Set 5 — cell line: HEK-293T; read-out: pseudovirus infection; method: FDA-approved drug library screen; organism: VSV pseudotyped with SARS-CoV-2 spike; tested at: 10 µM; time: 16 h; reference: vehicle-treated
Compound	GFP-positive cells [%]
COc1cc(CNC(=O)CCCC/C=C/C(C)C)ccc1O	100
CS(=O)(=O)CCNCc1ccc(-c2ccc3ncnc(Nc4ccc(OCc5cccc(F)c5)c(Cl)c4)c3c2)o1	56.5
CN(C)CCCN1c2ccccc2Sc2ccc(Cl)cc21	24.9

Further values, each from its own experiment — method: protein-binding microarray; form: double-stranded DNA, one strand shown; medium: in vitro; tested at: not given; direction: higher = stronger binding
Setting: k-mer, scored over probes, only values ≥0.25
Oligonucleotide	target	E-score
AGAACAA	Transcription factor SOX-2, HMG box (SOX2, Homo sapiens, UniProt P48431, residues 19-118)	0.352
GCGCGCAC	Transcriptional repressor CTCF (CTCF, Homo sapiens, UniProt P49711, residues 1-727, full length assumed)	0.363
ACCGGAAT	Protein C-ets-1 (ETS1, Homo sapiens, UniProt P14921, residues 1-441, full length assumed)	0.443
CGATCAC	Microphthalmia-associated transcription factor, full length (MITF, Homo sapiens, UniProt O75030-10, residues 1-413)	0.262

Some of these lines once more (set 1):
Oligonucleotide	fluorescence intensity
ACCTCAAGTGATGGGTACGTGGGTAGTCAGGCTTCCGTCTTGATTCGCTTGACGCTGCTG	61.6 a.u.
CTTTCCCGATCTTGTCACAGTACTTTAGCACATTTGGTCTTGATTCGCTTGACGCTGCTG	85.6 a.u.
CAGGCATAGCCCCGTCACGTTCTACGATAAGAACTTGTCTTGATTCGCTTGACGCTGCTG	321 a.u.
CCGCGGAATAGCGTTCCCGTGGGTAGAAAAGCAGCAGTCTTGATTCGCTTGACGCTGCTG	99.6 a.u.
AAATTACTAAGTTGTTGGGTGGGTGACGCCGTATGAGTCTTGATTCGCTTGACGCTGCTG	74.8 a.u.
GCTCATAAAACCATGCGCGTGTTTTTCTTCCACGGCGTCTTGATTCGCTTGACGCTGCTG	110 a.u.
